Experimental data from different studies.
Compare with care: the assays were run in different laboratories. Several values in a cell are separate wells, animals, samples, runs or records. ± gives the spread as reported.

SMILES | target or system | test | system | setting | how to read | endpoint | result
C=CC(=O)N(C)CCOc1c(N)ncnc1-c1cc(F)cc(NC(=O)c2ccc(C3CC3)cc2F)c1C |  |  | human | oral, 20 mg, day 7, geometric mean, added: ritonavir |  | AUC(0-inf) per dose | 19.9 ng·h/mL/mg
COc1ccc2c(=O)n(C)c(-c3ccccc3)nc2c1 |  |  | male Sprague-Dawley rat, large intestine | oral, 30 mg/kg, 2 h |  | tissue concentration | 5500 ng/g
CC(C)(C(=O)N1CCOc2c(C#N)cncc2C1)C(F)F |  | item: Conjunctivitis | human | oral, 20 mg twice daily, 14 days, multiple ascending dose |  | subjects with adverse event | 0%
COc1ncc(-c2nc3c(n2C(C)C)[C@H](c2ccc(Cl)cc2)N(c2cc(Cl)cn(C)c2=O)C3=O)c(OC)n1 |  |  | human patients, plasma | oral, 250 mg, high-dose arm, cycle 1 day 1 |  | median half-life | 15.5 h
CCCCOc1nc(N)c2c(n1)N(Cc1cccc(CN3CCCC3)c1)CC(=O)N2 |  |  | human | oral, 2 mg, drug interaction trial |  | serious TEAE | 0%
COc1c(O[C@@H]2O[C@H](CO)[C@@H](O)[C@H](O)[C@H]2O)cc2c(c1O)C(=O)c1c(cc(C)c(O)c1OC)C2=O | HK-2 co-cultured with HepaRG | MTT |  | 16.67 µM, 24 h | relative to: untreated control | cell viability | 91.2 ± 15.1%
CC(C)(CO)c1cc2cc(NC(=O)C3(c4ccc5c(c4)OC(F)(F)O5)CC3)c(F)cc2n1C[C@@H](O)CO |  |  | FaSSIF | literature solubility over dose |  | dose-adjusted solubility | 0.00238 mL⁻¹
C[C@@]1(c2cc(NC(=O)c3ccc(C#N)cn3)ccc2F)C=CSC(N)=N1 |  |  | elderly humans, both sexes, plasma | oral, 90 mg single dose |  | dose-normalised Cmax | 5.8 ng/mL
CCN1CCN(Cc2ccc(Nc3ncc(F)c(-c4cc(F)c5nc6n(c5c4)[C@H](C)CCC6)n3)nc2)CC1 |  | non-compartmental | human, phase Ia |  |  | Vd | 1630 to 2320 L
Cc1cc(-c2nccc3c2ccn3CC(=O)Nc2ccc(-c3cnccn3)cn2)ccn1 |  |  | human | SAD part, single 7 mg dose |  | subjects with Nausea TEAEs | 0%
Cn1cc(Nc2nccc(-c3ccc4c(c3)CN(C3COC3)CC[C@H]4NC(=O)c3cn(C(C)(C)C)nn3)n2)cn1 |  |  | human, whole blood | 50 mg twice daily, day 14 | relative to: pre-dose baseline | lymphocyte count change | 3.03%
Cc1nc2cccc(OCC(C)(C)C(=O)NC(C)C)c2c(N)c1C(=O)O |  |  | male Swiss albino CD-1 mouse, bone marrow | oral, 2000 mg/kg, 48 h |  | micronucleated polychromatic erythrocytes | 0.09%
NC1(C(=O)N[C@@H](CCO)c2ccc(Cl)cc2)CCN(c2nc[nH]c3nccc2-3)CC1 |  |  | metastatic CRPC patients | 400 mg b.i.d., any grade, treatment-related, added: enzalutamide 160 mg daily |  | incidence of weight decreased | 14.3%
C[C@@H]1CN(CC(=O)N2CC(C)(C)c3ncc(Cc4ccc(F)cc4)cc32)[C@@H](CN2CCOC[C@H]2C)CN1 |  |  | cynomolgus monkey, male | oral, 5 mg/kg |  | AUC(0-last) | 73 ± 9.7 ng·h/mL
CN1CCCC1CCNS(=O)(=O)c1ccc2c(c1)CN(CC1CCCCC1)CC2 (stereo not shown) |  |  | mouse, brain | oral, 10 mg/kg |  | Tlast | 24 h
Cc1nc(-c2ccc(OCC(C)C)c(C#N)c2)sc1C(=O)O |  |  | KM mouse, chronic hyperuricaemia model | dose not given, day 29 |  | body weight | 41.6 g and 36.8 g and 38.8 g and 34.6 g and 40.8 g and 45 g
CC1(C)CC[C@]2(NC(=O)C(C)(F)F)CC[C@]3(C)[C@H](C(=O)C=C4[C@@]5(C)C=C(C#N)C(=O)C(C)(C)[C@@H]5CC[C@]43C)[C@@H]2C1 |  |  | human, plasma | oral, 150 mg, day 24 predose, mean |  | trough plasma concentration | 39.4 ng/mL
CC(=O)c1c(C)cc2cc(O)cc(O[C@@H]3O[C@H](CO)[C@@H](O)[C@H](O)[C@H]3O)c2c1O | HK-2 co-cultured with HepaRG | MTT |  | 66.67 µM, 24 h | relative to: untreated control | cell viability | 110 ± 9.74%
CNC(=O)c1ccc(-c2cnc3ncc(Cc4ccc5ncccc5c4)n3n2)cc1F |  | item: Headache, all grades | gastric cancer patients | oral, 600 mg twice daily, expansion cohort, any causality |  | patients with adverse event | 11%

For quick reference, copied from above:
SMILES | target or system | test | system | setting | how to read | endpoint | result
CC(C)(CO)c1cc2cc(NC(=O)C3(c4ccc5c(c4)OC(F)(F)O5)CC3)c(F)cc2n1C[C@@H](O)CO |  |  | FaSSIF | literature solubility over dose |  | dose-adjusted solubility | 0.00238 mL⁻¹
C[C@@]1(c2cc(NC(=O)c3ccc(C#N)cn3)ccc2F)C=CSC(N)=N1 |  |  | elderly humans, both sexes, plasma | oral, 90 mg single dose |  | dose-normalised Cmax | 5.8 ng/mL
CCN1CCN(Cc2ccc(Nc3ncc(F)c(-c4cc(F)c5nc6n(c5c4)[C@H](C)CCC6)n3)nc2)CC1 |  | non-compartmental | human, phase Ia |  |  | Vd | 1630 to 2320 L
